Assay results gathered from unrelated publications.
± gives the spread as reported.
CPL: CPL (Toxoplasma gondii, UniProt Q6DMN0)
Aminopeptidase N: Aminopeptidase N (Neisseria meningitidis, UniProt Q9JYV4)

| Compound | target | test | system | setting | how to read | measurement | value |
| --- | --- | --- | --- | --- | --- | --- | --- |
| CC(C)P(=S)(NP(=S)(C(C)C)C(C)C)C(C)C | Alpha-amylase (Bacillus subtilis, UniProt P00691) | fluorescence quenching |  | concentration not given, 298 K |  | number of binding sites | 0.77 ± 0.08 |
| CCCCn1c2ccccc2c2cc(C(=O)c3cccc4ccccc34)ccc21 | Cannabinoid receptor 1 (CNR1, Homo sapiens, UniProt P21554) | GTPγS binding, agonist |  | cell membranes |  | Emax | 163% |
| COc1cccc(CN(CCC(C)C)c2nc(C#N)nc(N3CCOCC3)n2)c1 | CPL | enzyme activity, inhibitor |  |  | reference: human over Toxoplasma IC50 | selectivity ratio | 0.1 |
| CC(=O)NCC(=O)NCC(=O)N[C@@H](COP(=O)(O)O)C(=O)NCC(=O)NCC(N)=O | Phospholysine phosphohistidine inorganic pyrophosphate phosphatase (LHPP, Homo sapiens, UniProt Q9H008) | enzyme activity |  | concentration not given, 90 min, pH 7.8, together with: substrate 100 µM |  | substrate hydrolysis | 7.37% |
| C=CC[C@H](N)C(=O)Nc1ccc2c(CC(N)=O)cc(=O)oc2c1 | Aminopeptidase N | enzyme activity, substrate |  | 3 µM, pH 7.5, 37 °C | reference: L-hArg-ACC | relative hydrolysis rate | 20 to 40% |
| Cc1cc(O)cc(C)c1CC(N)C(=O)NC1CCNc2c(CN3CCCCC3)cc(Cc3ccccc3)cc21 (centres unmarked) | Delta-type opioid receptor (Oprd1, Rattus norvegicus, UniProt P33533) | GTPγS binding, agonist | C6 cells expressing DOR |  | reference: DPDPE at 10 µM | maximal stimulation | 31% |
| C#CC[C@H](N)C(=O)Nc1ccc2c(CC(N)=O)cc(=O)oc2c1 | Aminopeptidase N | enzyme activity, substrate |  | pH 7.5, 37 °C |  | Km | 121 ± 2.3 µM |
| CC(=O)OC1C(C)C(OC2CC3OCOC3C(C)O2)C=COC2(C)Oc3c(C)c(O)c4c(c3C2=O)C(=O)C=C(NC(=O)C(C)=CC=CC(C(C)OC(=O)C(C)(C)CC(=O)O)C(O)C(C)C(O)C1C)C4=O (centres unmarked) | DNA-directed RNA polymerase subunit beta (rpoB, Escherichia coli K-12, UniProt P0A8V2, D516V) | inhibitor |  |  | reference: compound over rifampicin | activity ratio | 10 |
| Nc1nc2c([C@@H]3O[C@@H]4COP(=O)(O)O[C@H]5[C@@H](O)[C@H](n6cnc7c(=O)[nH]c(N)nc76)O[C@@H]5COP(=O)(O)O[C@H]4[C@H]3O)snc2c(=O)[nH]1 | Cyclic di-GMP phosphodiesterase RocR (rocR, Pseudomonas aeruginosa, UniProt Q9HX69) | substrate |  | 10 µM, second binding orientation, together with: 100 nM enzyme |  | cleavage rate constant k4 | 0.34 ± 0.01 s⁻¹ |
| CC(=O)N[C@H]1C(O)O[C@H](CO)[C@@H](O[C@@H]2O[C@H](CO)[C@H](O)[C@H](O)[C@H]2O)[C@@H]1O (some centres unmarked) | Galectin-3 (LGALS3, Homo sapiens, UniProt P17931) | binding, isothermal titration calorimetry |  |  |  | –TΔS | 7.6 kcal/mol |
| CC[C@@H](C)[C@@H](NC(=O)[C@@H](CC(N)=O)NC(=O)[C@@H](CC(N)=O)NC(=O)[C@H](N)CCCNC(N)=O)C(=O)N1C[C@@H](n2cc([C]34[CH]5[CH]6[CH]7[CH]3[Fe]6754389%10[CH]4[CH]3[CH]8[CH]9[CH]4%10)nn2)C[C@H]1C(=O)N[C@@H](Cc1csc2ccccc12)C(=O)N[C@H](CO)C(N)=O (some centres unmarked) | Envelope glycoprotein gp160 (env, Human immunodeficiency virus type 1 group M subtype B, UniProt P35961) | ITC |  | concentration not given, pH 7.4, 25 °C |  | binding entropy term -TΔS | 5.7 ± 2.2 kcal/mol |
| O=c1c(O)c(-c2cc(O)ccc2O)oc2cc(O)cc(O)c12 | Cholinesterase (BCHE, Homo sapiens, UniProt P06276) | enzyme activity, inhibitor, Ellman |  | 1000 µg/mL |  | inhibition | 82.2% |
| CSCC[C@H](NC(=O)[C@H](CCCNC(=N)N)NC(=O)[C@H](CO)NC(=O)[C@@H](NC(=O)[C@H](CC(=O)O)NC(=O)[C@H](CC(=O)O)NC(=O)CCCCCNC(=O)c1ccc2c(c1)C(=O)OC21c2ccc(O)cc2Oc2cc(O)ccc21)[C@@H](C)O)C(=O)N[C@@H](CCC(=O)O)C(=O)N[C@@H](CCCCN)C(=O)N[C@H](C(=O)N[C@@H](CC(=O)O)C(=O)O)C(C)C | Stress-induced-phosphoprotein 1 (STIP1, Homo sapiens, UniProt P31948) | fluorescence polarization |  | pH 7.4 | reference: wild-type tracer | affinity decrease | ≥ 3 fold |
| CCC(C)Sc1nc2c([nH]1)c(=S)n(C)c(=O)n2C (centres unmarked) | Glucocorticoid receptor (Nr3c1, Rattus norvegicus, UniProt P06536) | reporter gene, antagonist, MMTV-luciferase | T47D/A1-2 | 10 µM, 24 h, together with: 5 nM dexamethasone | reference: maximal activity | remaining activity | 86% |
| CN(C)c1ccc(C(=O)N2CCN3C(=O)N(OC(=O)N4CCC(CCc5ccc(Cl)cc5)CC4)C(=O)C3C2)cc1 (centres unmarked) | Androgen-induced gene 1 protein (Homo sapiens, UniProt Q9NVV5) | inhibitor | LNCaP | concentration not given |  | probe labelling | inhibited |
| C=C(C)C(=O)Oc1ccc(C(C)(C)c2ccc(OC(=O)C(=C)C)cc2)cc1 | Aromatase (CYP19A1, Homo sapiens, UniProt P11511) | enzyme activity, inhibitor, tritiated water release | JEG-3 | maximum observed effect concentration, together with: androstenedione 10 nM | reference: control | maximum inhibition | 40% |
| CCN(Cc1ccccc1)C(=O)CCc1nc(CN2CCN(C(=O)Cc3ccc(OC)c(OC)c3)CC2)no1 | Potassium voltage-gated channel subfamily KQT member 4 (KCNQ4, Homo sapiens, UniProt P56696) | potassium current, whole-cell patch clamp | CHO, stable | 3 nM |  | activation V1/2 | -17 ± 1.16 mV |
| CC[C@H](C)[C@H](NC(=O)[C@H](CC(N)=O)NC(=O)[C@@H]1CCCN1C(=O)[C@H](CO)NC(=O)[C@H](CC(N)=O)NC(=O)[C@@H](N)CCC(N)=O)C(=O)N[C@@H](Cc1ccccc1)C(=O)NCC(=O)N[C@@H](CCC(N)=O)C(=O)N[C@@H](Cc1c[nH]c2ccccc12)C(=O)N[C@@H](CCSC)C(=O)O | Fsr quorum sensing protein (Enterococcus faecalis, UniProt A0ACD6TCR9) |  |  | concentration not given |  | activity | inactive |
| CC(C)CCN(Cc1ccccc1C(F)(F)F)c1nc(C#N)nc(N2CCOCC2)n1 | CPL | enzyme activity, inhibitor |  |  | reference: human over Toxoplasma IC50 | selectivity ratio | 0.4 |
| C[C@@H](O)[C@H](NC(=O)[C@H](CCCCN)NC(=O)CCC(=O)O)C(=O)NCC(=O)N[C@@H](CC(=O)O)C(=O)N[C@@H](CCC(=O)O)C(=O)N[C@@H](CCCCN)C(=O)N[C@@H](CCCCN)C(=O)NCC(=O)NCC(=O)N[C@@H](Cc1ccc(O)cc1)C(=O)NCC(=O)N[C@@H](CCCNC(=N)N)C(=O)N[C@@H](CCCCN)C(=O)N[C@@H](CCCCN)C(=O)N[C@@H](CCCNC(=N)N)C(=O)N[C@@H](CCCNC(=N)N)C(=O)N[C@@H](CCC(N)=O)C(=O)N[C@@H](CCCNC(=N)N)C(=O)N[C@@H](CCCNC(=N)N)C(=O)N[C@@H](CCCNC(=N)N)C(N)=O | Heat shock protein HSP 90-alpha, with Cdc37 (HSP90AA1, Homo sapiens, UniProt P07900) | Hsp90 Cdc37 binding, inhibitor, field-effect biosensor |  | 200 µM, pH 7.4, together with: Cdc37 0.4 to 200 nM |  | Kd | 2780 ± 20 nM |
| CC(=O)NC(Cc1ccc(Br)c(Cl)c1)C(=O)N[C@@H](C)C(=O)N1CCC[C@H]1C(=O)N1CCC[C@H]1C(=O)N[C@@H](CCC(=O)O)C(=O)N[C@@H](Cc1c[nH]cn1)C(=O)N[C@@H](CO)C(=O)N[C@H](C(=O)N[C@@H](C)C(N)=O)[C@@H](C)OP(=O)(O)O (some centres unmarked) | Fibroblast growth factor receptor 1 (FGFR1, Homo sapiens, UniProt P11362) | cell-free assay, inhibitor |  | 10 µM |  | inhibition | 0.74% |
| CC[C@H](C)[C@H](NC(=O)[C@H](CCCCN)NC(=O)[C@H](Cc1ccccc1)NC(=O)[C@H](CCCCNC(=O)[C@H](CC(C)C)NC(=O)[C@@H]1CCCN1C(=O)[C@H](CCCCN)NC(=O)C[C@@H]1O[C@@H](C)[C@@H](O)[C@@H](O)[C@@H]1O)NC(=O)[C@H](CC(C)C)NC(=O)[C@@H]1CCCN1C(=O)[C@H](CCCCN)NC(=O)C[C@@H]1O[C@@H](C)[C@@H](O)[C@@H](O)[C@@H]1O)C(N)=O | Fucose-binding lectin PA-IIL (lecB, Pseudomonas aeruginosa, UniProt Q9HYN5) | binding, isothermal titration calorimetry |  | divided by fucoside copies | reference: monovalent fucoside KD over ligand KD | relative potency per fucoside | 3.1 |
| NCCCCCCCCN1[C@H]2[C@H](O)[C@@H](O)[C@H](O[C@@H]3OC[C@@H](O)[C@H](O)[C@H]3O)C[C@H]21 (some centres unmarked) | Probable endo-1,4-beta-xylanase C (xlnC, Aspergillus niger, UniProt C5J411) | activity-based probe binding, competitive inhibitor, in-gel fluorescence | Aspergillus niger, xylan-induced secretome | concentration not given, band near 30 kDa, together with: Cy5 xylobiose activity-based probe |  | probe labelling | inhibited |

For quick reference, copied from above:
| Compound | target | test | system | setting | how to read | measurement | value |
| --- | --- | --- | --- | --- | --- | --- | --- |
| CCN(Cc1ccccc1)C(=O)CCc1nc(CN2CCN(C(=O)Cc3ccc(OC)c(OC)c3)CC2)no1 | Potassium voltage-gated channel subfamily KQT member 4 (KCNQ4, Homo sapiens, UniProt P56696) | potassium current, whole-cell patch clamp | CHO, stable | 3 nM |  | activation V1/2 | -17 ± 1.16 mV |
| C=C(C)C(=O)Oc1ccc(C(C)(C)c2ccc(OC(=O)C(=C)C)cc2)cc1 | Aromatase (CYP19A1, Homo sapiens, UniProt P11511) | enzyme activity, inhibitor, tritiated water release | JEG-3 | maximum observed effect concentration, together with: androstenedione 10 nM | reference: control | maximum inhibition | 40% |
